# Measurements of several laboratories.
# Compare with care: the assays were run in different laboratories.
SMILES,test,system,conditions,AUC(0-inf)
OCc1ncc2n1-c1ccc(Cl)cc1C(c1ccccc1F)=NC2,,"human, plasma","oral, 2 mg midazolam, day 1, midazolam alone, geometric mean",6.66 ng·h/mL
O=C(O)C[C@H](O)C[C@H](O)/C=C/c1c(C2CC2)nc2ccccc2c1-c1ccc(F)cc1,,"human, plasma","oral, 2 mg",67.3 ng·h/mL
O=c1ccc2ncc(=O)n3c2n1C[C@H]3CN1CCC(NCc2cc3c(cn2)OCCC3)CC1,,"healthy human volunteers, plasma","oral, 1500 mg, alone, arithmetic mean",20000 ng·h/mL
COc1ccc(C[C@@H]2NC(=O)[C@H]([C@@H](C)O)NC(=O)[C@@H]3[C@@H]4CCN3C(=O)[C@@H]3Cc5cn(c6ccc(F)cc56)CCCCCCN(Cc5ccc(cc5)CCNC(=O)[C@]5(C)CCCN5C2=O)C(=O)CCC(=O)N[C@@H](C)C(=O)N[C@H](CNC(=O)CCCCC[N+](C)(C)C)C(=O)N[C@@H](Cc2cccc(c2)CNC(=O)CO4)C(=O)N3)cc1,,"human, plasma","oral, 40 mg single, fasted (lower-fat comparison), geometric mean, together with: sodium caprate 720 mg",0.505 µM·h
Cc1ncc2n1-c1ccc(Cl)cc1C(c1ccccc1F)=NC2,,"human, plasma","oral, 2 mg, day 1, single dose alone, mean",28.7 ng·h/mL
OCc1ncc2n1-c1ccc(Cl)cc1C(c1ccccc1F)=NC2,,human,"dose not given, metabolite of midazolam, together with: midazolam alone",12.1 ng·h/mL
CC(=O)c1c(C)c2cnc(Nc3ccc(C4CCN(CCS(C)(=O)=O)CC4)cn3)nc2n(C2CCCC2)c1=O,,"human, dose-escalation trial, plasma","oral, 75 mg twice daily, day 1, single dose",1410 ng·h/mL
O[C@H]1CCCN[C@@H]1CCCn1cnc2c(Cl)c(Cl)ccc21,,"healthy humans, plasma","oral, 150 mg single dose",930 ng·h/mL
C[C@]1(CO)Cc2ncn(-c3ccc(C#N)c(Cl)c3)c2C(=O)O1,,"human, plasma","10 mg, first dose fasted",2.54 µM·h
OCc1ncc2n1-c1ccc(Cl)cc1C(c1ccccc1F)=NC2,,"human, plasma","oral, 7.5 mg of midazolam, day 19, geometric mean, no amenamevir",43.2 ng·h/mL
N.N.O=C([O-])C1(C(=O)[O-])CCC1.[Pt+2],refers to: unbound platinum,"human, plasma ultrafiltrate","intravenous, AUC 3, median, dose level -2",36700 ng·h/mL
OCc1ncc2n1-c1ccc(Cl)cc1C(c1ccccc1F)=NC2,,"humans, plasma","3 mg of midazolam, together with: isavuconazole",18.9 ng·h/mL
OCc1ncc2n1-c1ccc(Cl)cc1C(c1ccccc1F)=NC2,,"healthy human volunteers, plasma","5 mg single dose, day 1, fed, given alone",29.3 ng·h/mL
CC(C)c1nc(N(C)S(C)(=O)=O)nc(-c2ccc(F)cc2)c1/C=C/[C@@H](O)C[C@@H](O)CC(=O)O,,"healthy human subjects, plasma","oral, 20 mg, day 1, alone, geometric mean",49.1 ng·h/mL

# A few entries again:
SMILES,test,system,conditions,AUC(0-inf)
O[C@H]1CCCN[C@@H]1CCCn1cnc2c(Cl)c(Cl)ccc21,,"healthy humans, plasma","oral, 150 mg single dose",930 ng·h/mL
OCc1ncc2n1-c1ccc(Cl)cc1C(c1ccccc1F)=NC2,,"humans, plasma","3 mg of midazolam, together with: isavuconazole",18.9 ng·h/mL
